Experimental data of several laboratories.
Each numbered part is a random draw from the data of one study; scales do not carry over between parts. Several values in a cell are separate wells, animals, samples, runs or records.
Sequence of UniProt Q86YV6 (whole entry, looked up): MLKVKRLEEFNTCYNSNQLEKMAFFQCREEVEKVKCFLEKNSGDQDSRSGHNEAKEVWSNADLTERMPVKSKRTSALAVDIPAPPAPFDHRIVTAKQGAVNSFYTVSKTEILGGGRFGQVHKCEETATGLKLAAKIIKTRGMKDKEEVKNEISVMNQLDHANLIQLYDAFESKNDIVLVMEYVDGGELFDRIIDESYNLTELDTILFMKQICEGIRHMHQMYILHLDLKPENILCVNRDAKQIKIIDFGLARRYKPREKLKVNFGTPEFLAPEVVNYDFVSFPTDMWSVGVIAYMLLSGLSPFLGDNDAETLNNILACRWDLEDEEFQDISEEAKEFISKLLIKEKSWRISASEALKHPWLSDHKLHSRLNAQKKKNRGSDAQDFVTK
Sequence of UniProt Q9Y6R4 (whole entry, looked up): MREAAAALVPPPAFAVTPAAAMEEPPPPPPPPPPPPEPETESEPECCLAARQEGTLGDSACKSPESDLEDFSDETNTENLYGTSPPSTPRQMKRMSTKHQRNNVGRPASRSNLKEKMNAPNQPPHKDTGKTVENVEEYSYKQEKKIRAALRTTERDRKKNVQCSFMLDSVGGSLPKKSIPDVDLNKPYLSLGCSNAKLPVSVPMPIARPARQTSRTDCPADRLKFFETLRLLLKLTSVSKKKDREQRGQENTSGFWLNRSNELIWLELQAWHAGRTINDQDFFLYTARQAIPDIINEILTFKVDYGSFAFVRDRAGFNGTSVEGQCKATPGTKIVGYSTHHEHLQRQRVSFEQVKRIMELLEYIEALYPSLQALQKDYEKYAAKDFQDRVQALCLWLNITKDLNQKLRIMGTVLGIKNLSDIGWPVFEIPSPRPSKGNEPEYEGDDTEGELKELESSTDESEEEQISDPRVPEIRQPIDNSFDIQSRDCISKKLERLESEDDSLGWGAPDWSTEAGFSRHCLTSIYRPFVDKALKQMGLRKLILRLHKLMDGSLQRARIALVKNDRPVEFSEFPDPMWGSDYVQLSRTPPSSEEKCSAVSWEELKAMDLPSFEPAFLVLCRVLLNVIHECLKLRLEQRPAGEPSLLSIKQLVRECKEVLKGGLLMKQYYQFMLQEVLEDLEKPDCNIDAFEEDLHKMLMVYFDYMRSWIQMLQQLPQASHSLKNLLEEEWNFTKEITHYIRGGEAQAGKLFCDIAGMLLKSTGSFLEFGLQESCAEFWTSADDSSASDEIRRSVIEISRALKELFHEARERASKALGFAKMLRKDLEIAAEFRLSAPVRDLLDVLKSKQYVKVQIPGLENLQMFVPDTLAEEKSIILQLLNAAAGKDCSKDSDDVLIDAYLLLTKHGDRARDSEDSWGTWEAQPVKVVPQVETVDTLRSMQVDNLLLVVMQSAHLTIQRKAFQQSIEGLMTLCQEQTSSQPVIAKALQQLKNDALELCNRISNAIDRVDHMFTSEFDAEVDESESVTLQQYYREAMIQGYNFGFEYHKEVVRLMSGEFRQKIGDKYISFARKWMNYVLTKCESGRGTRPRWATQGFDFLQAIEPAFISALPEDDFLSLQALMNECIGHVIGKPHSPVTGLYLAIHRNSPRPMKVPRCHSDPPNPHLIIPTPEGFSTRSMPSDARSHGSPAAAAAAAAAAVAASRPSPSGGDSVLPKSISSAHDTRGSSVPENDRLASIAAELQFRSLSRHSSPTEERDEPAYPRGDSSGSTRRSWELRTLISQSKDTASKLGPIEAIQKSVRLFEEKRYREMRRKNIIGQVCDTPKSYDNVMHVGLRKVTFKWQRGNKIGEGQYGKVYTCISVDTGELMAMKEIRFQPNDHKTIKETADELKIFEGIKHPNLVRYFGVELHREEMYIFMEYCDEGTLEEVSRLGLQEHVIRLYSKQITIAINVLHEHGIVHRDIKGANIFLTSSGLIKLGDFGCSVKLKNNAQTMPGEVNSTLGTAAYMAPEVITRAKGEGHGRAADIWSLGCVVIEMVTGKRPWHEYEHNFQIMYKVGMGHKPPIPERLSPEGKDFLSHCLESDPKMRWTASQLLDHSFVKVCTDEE
Sequence of UniProt Q56UN5 (whole entry, looked up): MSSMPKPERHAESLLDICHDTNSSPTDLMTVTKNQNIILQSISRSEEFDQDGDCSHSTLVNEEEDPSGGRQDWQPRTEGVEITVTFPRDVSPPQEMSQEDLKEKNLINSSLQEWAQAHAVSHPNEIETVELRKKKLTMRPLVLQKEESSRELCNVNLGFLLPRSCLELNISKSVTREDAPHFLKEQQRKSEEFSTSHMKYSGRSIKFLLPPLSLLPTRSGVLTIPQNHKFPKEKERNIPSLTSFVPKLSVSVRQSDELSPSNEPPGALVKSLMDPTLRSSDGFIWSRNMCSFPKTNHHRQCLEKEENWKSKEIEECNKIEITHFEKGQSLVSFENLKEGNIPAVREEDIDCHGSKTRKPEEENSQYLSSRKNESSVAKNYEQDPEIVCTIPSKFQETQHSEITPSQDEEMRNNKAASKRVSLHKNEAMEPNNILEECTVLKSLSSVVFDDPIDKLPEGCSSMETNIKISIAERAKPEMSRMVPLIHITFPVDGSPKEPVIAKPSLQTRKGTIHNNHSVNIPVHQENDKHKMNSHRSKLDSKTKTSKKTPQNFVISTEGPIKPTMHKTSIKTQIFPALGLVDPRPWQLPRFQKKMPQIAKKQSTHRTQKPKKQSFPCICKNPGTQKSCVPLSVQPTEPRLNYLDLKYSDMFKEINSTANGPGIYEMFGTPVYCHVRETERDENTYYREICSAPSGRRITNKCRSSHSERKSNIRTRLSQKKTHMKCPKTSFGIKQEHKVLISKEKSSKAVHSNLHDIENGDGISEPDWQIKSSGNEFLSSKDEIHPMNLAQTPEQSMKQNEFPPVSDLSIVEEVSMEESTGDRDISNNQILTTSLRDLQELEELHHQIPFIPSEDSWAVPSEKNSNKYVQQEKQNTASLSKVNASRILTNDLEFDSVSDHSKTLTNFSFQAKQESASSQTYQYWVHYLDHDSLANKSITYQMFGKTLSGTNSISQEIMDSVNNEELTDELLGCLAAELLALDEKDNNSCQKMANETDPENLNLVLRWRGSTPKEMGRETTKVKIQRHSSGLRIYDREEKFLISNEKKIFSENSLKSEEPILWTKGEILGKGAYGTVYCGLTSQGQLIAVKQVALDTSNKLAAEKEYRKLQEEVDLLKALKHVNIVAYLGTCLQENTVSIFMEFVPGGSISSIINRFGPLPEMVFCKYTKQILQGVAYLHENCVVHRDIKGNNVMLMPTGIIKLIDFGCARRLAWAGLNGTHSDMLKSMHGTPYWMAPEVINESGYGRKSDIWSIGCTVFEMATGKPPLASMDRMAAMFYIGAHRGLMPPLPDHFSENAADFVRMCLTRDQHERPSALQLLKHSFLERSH
Sequence of UniProt P29597 (whole entry, looked up): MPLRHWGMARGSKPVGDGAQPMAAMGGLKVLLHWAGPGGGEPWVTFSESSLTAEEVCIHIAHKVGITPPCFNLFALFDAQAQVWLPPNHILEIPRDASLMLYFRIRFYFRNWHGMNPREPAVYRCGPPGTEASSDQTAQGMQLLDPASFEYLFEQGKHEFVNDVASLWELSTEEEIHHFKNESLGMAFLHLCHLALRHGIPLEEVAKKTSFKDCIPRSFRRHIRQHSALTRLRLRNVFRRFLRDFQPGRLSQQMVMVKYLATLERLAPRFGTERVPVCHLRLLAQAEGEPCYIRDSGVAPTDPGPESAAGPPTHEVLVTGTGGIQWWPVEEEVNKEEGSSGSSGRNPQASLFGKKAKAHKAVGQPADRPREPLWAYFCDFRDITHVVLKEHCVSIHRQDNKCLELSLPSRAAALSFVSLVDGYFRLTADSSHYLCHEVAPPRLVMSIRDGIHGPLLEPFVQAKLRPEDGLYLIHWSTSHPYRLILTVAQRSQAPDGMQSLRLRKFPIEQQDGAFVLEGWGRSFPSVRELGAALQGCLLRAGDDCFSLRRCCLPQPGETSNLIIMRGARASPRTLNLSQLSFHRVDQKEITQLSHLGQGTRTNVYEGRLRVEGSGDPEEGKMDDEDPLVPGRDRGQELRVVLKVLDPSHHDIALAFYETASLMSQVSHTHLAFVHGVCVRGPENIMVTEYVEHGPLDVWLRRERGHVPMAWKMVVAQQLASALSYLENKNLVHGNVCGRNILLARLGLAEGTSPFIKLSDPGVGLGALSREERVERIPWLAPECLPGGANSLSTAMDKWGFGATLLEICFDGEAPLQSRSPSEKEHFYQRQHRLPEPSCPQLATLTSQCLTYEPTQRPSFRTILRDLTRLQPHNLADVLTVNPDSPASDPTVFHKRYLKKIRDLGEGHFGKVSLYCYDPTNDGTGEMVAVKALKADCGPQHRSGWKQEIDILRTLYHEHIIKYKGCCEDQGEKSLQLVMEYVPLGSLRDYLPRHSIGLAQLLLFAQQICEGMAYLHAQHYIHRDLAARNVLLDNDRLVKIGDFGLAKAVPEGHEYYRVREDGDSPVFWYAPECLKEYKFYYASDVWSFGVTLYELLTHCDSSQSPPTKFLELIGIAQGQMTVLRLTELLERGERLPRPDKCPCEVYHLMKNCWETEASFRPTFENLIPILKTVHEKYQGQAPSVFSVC

Sample 1
Cell line: mouse MPNST tumor cells
Technique: high-content immunofluorescence imaging
Measured: nuclear SOX9
Tested at: 10 µM
Time: 12 h
Setting: mean of 2 replicates
Relative to: DMSO control
Direction: higher = more nuclear SOX9
Quantity: nuclear SOX9 intensity
C[C@H](Nc1cc2c(-c3ccc4c(c3)OCO4)noc2cn1)c1ccccc1: 124 % of DMSO
Cc1cn2cc(CC(=O)N3CCC4(CC3)CN(Cc3ccc(-n5nccn5)cc3Cl)C4)nc2s1: 138 % of DMSO
COc1cc2ncnc(Nc3ccc(O)c(Br)c3)c2cc1OC: 86.5 % of DMSO
COc1ccccc1OCC(O)COC(N)=O (centres unmarked): 105 % of DMSO and 98.1 % of DMSO
CN1CCc2cccc3c2[C@H]1Cc1ccc(O)c(O)c1-3: 137 % of DMSO
CCC1(c2ncc[nH]2)Cc2ccccc2O1 (centres unmarked): 98.2 % of DMSO
O=C1N(c2ccccc2)c2ccccc2C1(Cc1ccncc1)Cc1ccncc1: 92.4 % of DMSO
COc1cc2nccc(Oc3ccc(NC(=O)Nc4ccc(F)cc4F)c(F)c3)c2cc1OC: 195 % of DMSO
Cc1c(C(=O)NCc2cccnc2)nn(-c2ccc(Cl)cc2Cl)c1-c1ccc(Cl)cc1: 105 % of DMSO
Cc1cccc(Nc2cc(Cl)nc(SCC(=O)O)n2)c1C: 83.4 % of DMSO
CC(C)N(CCC(=O)c1ccc2ccccc2c1)Cc1ccccc1: 110 % of DMSO
CCC1=C(C)CN(C(=O)NCCc2ccc(S(=O)(=O)NC(=O)N[C@H]3CC[C@H](C)CC3)cc2)C1=O: 98 % of DMSO
CCN1CC(CCN2CCOCC2)C(c2ccccc2)(c2ccccc2)C1=O (centres unmarked): 92.7 % of DMSO and 100 % of DMSO
COc1ccc2cc([C@H](C)C(=O)O)ccc2c1: 103 % of DMSO
C[C@H]1C[C@@H]2[C@H]([C@@H](O)C[C@@]3(C)[C@H]2CC[C@]3(O)C(=O)CO)[C@@]2(C)C=CC(=O)C=C12: 74.5 % of DMSO

Sample 2
Target: Mitogen-activated protein kinase 13 (MAPK13, Homo sapiens, UniProt O15264)
Effect on: enzyme activity
Mode: inhibitor
Tested at: 0.5 µM
Relative to: control
Quantity: remaining activity
Construct (O15264 1-365): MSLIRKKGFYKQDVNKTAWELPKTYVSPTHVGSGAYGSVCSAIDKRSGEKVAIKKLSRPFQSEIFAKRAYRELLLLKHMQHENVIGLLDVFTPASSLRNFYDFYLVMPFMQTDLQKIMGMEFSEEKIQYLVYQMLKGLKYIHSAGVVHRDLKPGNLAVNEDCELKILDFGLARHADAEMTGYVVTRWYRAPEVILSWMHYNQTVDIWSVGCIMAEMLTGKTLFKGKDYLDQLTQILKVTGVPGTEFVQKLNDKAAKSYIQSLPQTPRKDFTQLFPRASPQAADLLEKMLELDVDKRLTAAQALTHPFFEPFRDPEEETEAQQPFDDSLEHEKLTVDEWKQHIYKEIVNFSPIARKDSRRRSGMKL
COc1cc2ncnc(Nc3ccc(O)c(Br)c3)c2cc1OC: 102%
CN([C@@H](Cc1ccc(OS(=O)(=O)c2cccc3cnccc23)cc1)C(=O)N1CCN(c2ccccc2)CC1)S(=O)(=O)c1cccc2cnccc12: 102%
O=C1c2ccccc2-c2n[nH]c3cccc1c23: 99.4%
Ic1cccc(CSc2nnc(-c3ccncc3)o2)c1: 93.8%
O=C(Nc1cccc(Nc2nccc(Nc3cccc(C(F)(F)F)c3)n2)c1)C1CC1: 99.6%
Nc1cccc(-c2cc3c(Oc4cccc(O)c4)ncnc3[nH]2)c1: 104%
N#C/C(=C\c1ccc(O)c(O)c1)C(=O)NCc1ccccc1: 101%
Cc1cn(-c2cc(NC(=O)c3ccc(C)c(Nc4nccc(-c5cccnc5)n4)c3)cc(C(F)(F)F)c2)cn1: 90.7%
COc1cc2ncnc(Nc3cccc(Cl)c3)c2cc1OC: 99.8%
CCN(CC)C(=O)c1ccc(Nc2nc(OCC3CCCCC3)c3[nH]cnc3n2)cc1: 95.3%
c1ccc(-c2[nH]ncc2-c2ccnc3ccccc23)nc1: 110%
c1ccc(-c2cnc(Nc3ccc(OCCN4CCCC4)cc3)s2)cc1: 104%
Cc1nc2cc3nc(-c4cccs4)cnc3cc2n1C: 99.7%
CCN(CC)CCNC(=O)c1c(C)[nH]c(/C=C2\C(=O)Nc3ccc(F)cc32)c1C: 92.4%
COc1cc2c(cc1OC)-c1[nH]nc(Nc3cccc(F)c3)c1C2: 99.7%
O=c1cc(-c2cccc3c2Sc2ccccc2S3)oc(N2CCOCC2)c1: 101%
N#Cc1c(NC(=O)c2cccc3ccccc23)sc2c1CCCC2: 109%
Cn1nc2c3c(cccc31)C(=O)c1ccccc1-2: 106%
CCN(CC)CCNC(=O)c1c(C)[nH]c(/C=C2\C(=O)Nc3ccc(Cl)cc32)c1C: 104%
O=C1C(Cl)=C(N2C(=O)CCC2=O)C(=O)c2ccccc21: 106%
CN(C)C[C@H]1CCn2c(c(C3=C(c4cn(C)c5ccccc45)C(=O)NC3=O)c3ccccc32)C1: 117%
CCOc1nc(NC(=O)Cc2cc(OC)ccc2OC)cc(N)c1C#N: 106%
O=C(NC(NC(=S)Nc1ccc(F)c([N+](=O)[O-])c1)C(Cl)(Cl)Cl)C(c1ccccc1)c1ccccc1 (centres unmarked): 107%
Cc1cc2ncc(-c3ccccc3)nc2cc1C: 107%

Sample 3
Cell line: A-375
Tested at: 100 µM
Time: 18 h
Quantity: viability
OCCOc1ccc(/C(=C(/CCCl)c2ccccc2)c2ccccc2)cc1: 8.3%
Cc1cc2nc3c(=O)[nH]c(=O)nc-3n(C[C@H](O)[C@H](O)[C@H](O)CO)c2cc1C: 92.5%
Oc1ccc(/C=C/c2cc(O)cc(O)c2)cc1: 70.2%
O=C1OC(CN2CCOCC2)CN1/N=C/c1ccc([N+](=O)[O-])o1 (centres unmarked): 72.9%
CC(=O)OCC1=C(C(=O)O)N2C(=O)[C@@H](NC(=O)Cc3cccs3)[C@H]2SC1: 113%
O=C(O)Cc1cc(I)c(Oc2ccc(O)c(I)c2)c(I)c1: 64.6%
C[C@H]1C[C@@H]2[C@H]([C@@H](O)C[C@@]3(C)[C@H]2CC[C@]3(O)C(=O)CO)[C@@]2(C)C=CC(=O)C=C12: 100%
CCC(=O)O[C@]1(C(=O)CCl)[C@@H](C)C[C@H]2[C@@H]3CCC4=CC(=O)C=C[C@]4(C)[C@@]3(F)[C@@H](O)C[C@@]21C: 67.6%
CCOC(=O)C(C)(C)Oc1ccc(Cl)cc1: 50.5%
CO[C@H]1C[C@@H]2CC[C@@H](C)[C@@](O)(O2)C(=O)C(=O)N2CCCC[C@H]2C(=O)O[C@H]([C@H](C)C[C@@H]2CC[C@@H](OCCO)[C@H](OC)C2)CC(=O)[C@H](C)/C=C(\C)[C@@H](O)[C@@H](OC)C(=O)[C@H](C)C[C@H](C)/C=C/C=C/C=C/1C: 24.8%
Cn1c(=O)c2[nH]cnc2n(C)c1=O: 104% and 91.7% and 100%
CCCCc1ncc(/C=C(\Cc2cccs2)C(=O)O)n1Cc1ccc(C(=O)O)cc1: 88.9%
Cc1c(CNCS(=O)(=O)O)c(=O)n(-c2ccccc2)n1C: 103%
CN(C)CCN(Cc1ccc(Cl)cc1)c1ccccn1: 48.3%
CCCCN1CCCC[C@H]1C(=O)Nc1c(C)cccc1C: 84.1% and 83.9%
N=C(N)N/N=C/c1c(Cl)cccc1Cl: 73.2%

Sample 4
Compound: COc1cc(-c2cn(C3CCc4c(F)cccc4N(CC(F)(F)F)C3=O)nn2)ccc1-n1cnc(C)c1 (centres unmarked)
Technique: competition with immobilised ligand
Tested at: 1 µM
Quantity: remaining binding
Tyrosine-protein kinase HCK (HCK, Homo sapiens, UniProt P08631); cell-free assay: 100%
Serine/threonine-protein kinase Nek5 (NEK5, Homo sapiens, UniProt Q6P3R8); cell-free assay: 90%
Serine/threonine-protein kinase STK11 (STK11, Homo sapiens, UniProt Q15831); cell-free assay: 100%
Mitogen-activated protein kinase kinase kinase kinase 2 (MAP4K2, Homo sapiens, UniProt Q12851); cell-free assay: 100%
Dual specificity mitogen-activated protein kinase kinase 1 (MAP2K1, Homo sapiens, UniProt Q02750); cell-free assay: 100%
Serine/threonine-protein kinase PLK1 (PLK1, Homo sapiens, UniProt P53350); cell-free assay: 100%
Proto-oncogene tyrosine-protein kinase Src (SRC, Homo sapiens, UniProt P12931); cell-free assay: 93%
Mitogen-activated protein kinase kinase kinase kinase 5 (MAP4K5, Homo sapiens, UniProt Q9Y4K4); binding: 5.8%
Serine/threonine-protein kinase SBK1 (SBK1, Homo sapiens, UniProt Q52WX2); cell-free assay: 94%
Mitogen-activated protein kinase kinase kinase 4 (MAP3K4, Homo sapiens, UniProt Q9Y6R4); cell-free assay: 94%
Cyclin-dependent kinase 13 (CDK13, Homo sapiens, UniProt Q14004); cell-free assay: 99%
Receptor-type tyrosine-protein kinase FLT3 (FLT3, Homo sapiens, UniProt P36888, D835H); cell-free assay: 98%
Serine/threonine-protein kinase D3 (PRKD3, Homo sapiens, UniProt O94806); cell-free assay: 100%
Activin receptor type-2A (ACVR2A, Homo sapiens, UniProt P27037); binding: 0%
Phosphatidylinositol 4,5-bisphosphate 3-kinase catalytic subunit alpha isoform (PIK3CA, Homo sapiens, UniProt P42336, Q546K); cell-free assay: 90%
Epidermal growth factor receptor (EGFR, Homo sapiens, UniProt P00533, del746-750); cell-free assay: 94%
Mitogen-activated protein kinase kinase kinase 19 (MAP3K19, Homo sapiens, UniProt Q56UN5); cell-free assay: 100%
Myosin light chain kinase family member 4 (MYLK4, Homo sapiens, UniProt Q86YV6); cell-free assay: 100%
Myotonin-protein kinase (DMPK, Homo sapiens, UniProt Q09013); cell-free assay: 99%
Non-receptor tyrosine-protein kinase TYK2, JH1 (TYK2, Homo sapiens, UniProt P29597); cell-free assay: 100%
Mitogen-activated protein kinase kinase kinase 3 (MAP3K3, Homo sapiens, UniProt Q99759); cell-free assay: 100%
MAP kinase-interacting serine/threonine-protein kinase 2 (MKNK2, Homo sapiens, UniProt Q9HBH9); cell-free assay: 76%
Mitogen-activated protein kinase 11 (MAPK11, Homo sapiens, UniProt Q15759); cell-free assay: 90%
Serine/threonine-protein kinase 16 (STK16, Homo sapiens, UniProt O75716); cell-free assay: 100%
Glycogen synthase kinase-3 beta (GSK3B, Homo sapiens, UniProt P49841); cell-free assay: 100%

Some of these lines once more (sample 2):
COc1cc2c(cc1OC)-c1[nH]nc(Nc3cccc(F)c3)c1C2: 99.7%
O=c1cc(-c2cccc3c2Sc2ccccc2S3)oc(N2CCOCC2)c1: 101%
N#Cc1c(NC(=O)c2cccc3ccccc23)sc2c1CCCC2: 109%
Cn1nc2c3c(cccc31)C(=O)c1ccccc1-2: 106%
CCN(CC)CCNC(=O)c1c(C)[nH]c(/C=C2\C(=O)Nc3ccc(Cl)cc32)c1C: 104%
O=C1C(Cl)=C(N2C(=O)CCC2=O)C(=O)c2ccccc21: 106%
CN(C)C[C@H]1CCn2c(c(C3=C(c4cn(C)c5ccccc45)C(=O)NC3=O)c3ccccc32)C1: 117%
CCOc1nc(NC(=O)Cc2cc(OC)ccc2OC)cc(N)c1C#N: 106%
O=C(NC(NC(=S)Nc1ccc(F)c([N+](=O)[O-])c1)C(Cl)(Cl)Cl)C(c1ccccc1)c1ccccc1 (centres unmarked): 107%
